Measured values collected from several papers.
Numbered parts are unrelated; each lists some results of a single study. Values joined by “and” are separate records of one study, mostly repeats; a detail may differ.
Sequence of UniProt Q9UKI8 (whole entry, looked up): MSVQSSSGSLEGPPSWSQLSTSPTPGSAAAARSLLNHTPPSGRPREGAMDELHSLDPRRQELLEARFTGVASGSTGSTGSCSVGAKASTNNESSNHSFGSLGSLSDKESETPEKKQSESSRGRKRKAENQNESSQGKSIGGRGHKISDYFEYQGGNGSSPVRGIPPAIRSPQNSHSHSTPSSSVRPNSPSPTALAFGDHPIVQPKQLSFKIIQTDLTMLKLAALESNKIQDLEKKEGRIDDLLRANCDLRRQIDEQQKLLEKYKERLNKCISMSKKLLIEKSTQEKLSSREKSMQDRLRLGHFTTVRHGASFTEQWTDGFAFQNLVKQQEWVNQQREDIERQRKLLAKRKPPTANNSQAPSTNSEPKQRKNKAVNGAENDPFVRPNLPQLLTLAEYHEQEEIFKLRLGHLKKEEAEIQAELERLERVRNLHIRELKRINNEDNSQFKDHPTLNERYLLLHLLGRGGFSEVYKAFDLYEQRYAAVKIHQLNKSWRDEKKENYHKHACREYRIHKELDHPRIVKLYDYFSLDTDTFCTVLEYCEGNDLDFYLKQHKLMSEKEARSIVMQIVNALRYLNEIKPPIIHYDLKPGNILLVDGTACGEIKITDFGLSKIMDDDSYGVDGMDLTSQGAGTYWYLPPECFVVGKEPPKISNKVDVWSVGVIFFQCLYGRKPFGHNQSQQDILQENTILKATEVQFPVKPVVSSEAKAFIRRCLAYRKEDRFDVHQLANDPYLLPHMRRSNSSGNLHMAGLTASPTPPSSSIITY
Sequence of UniProt P42684 (whole entry, looked up): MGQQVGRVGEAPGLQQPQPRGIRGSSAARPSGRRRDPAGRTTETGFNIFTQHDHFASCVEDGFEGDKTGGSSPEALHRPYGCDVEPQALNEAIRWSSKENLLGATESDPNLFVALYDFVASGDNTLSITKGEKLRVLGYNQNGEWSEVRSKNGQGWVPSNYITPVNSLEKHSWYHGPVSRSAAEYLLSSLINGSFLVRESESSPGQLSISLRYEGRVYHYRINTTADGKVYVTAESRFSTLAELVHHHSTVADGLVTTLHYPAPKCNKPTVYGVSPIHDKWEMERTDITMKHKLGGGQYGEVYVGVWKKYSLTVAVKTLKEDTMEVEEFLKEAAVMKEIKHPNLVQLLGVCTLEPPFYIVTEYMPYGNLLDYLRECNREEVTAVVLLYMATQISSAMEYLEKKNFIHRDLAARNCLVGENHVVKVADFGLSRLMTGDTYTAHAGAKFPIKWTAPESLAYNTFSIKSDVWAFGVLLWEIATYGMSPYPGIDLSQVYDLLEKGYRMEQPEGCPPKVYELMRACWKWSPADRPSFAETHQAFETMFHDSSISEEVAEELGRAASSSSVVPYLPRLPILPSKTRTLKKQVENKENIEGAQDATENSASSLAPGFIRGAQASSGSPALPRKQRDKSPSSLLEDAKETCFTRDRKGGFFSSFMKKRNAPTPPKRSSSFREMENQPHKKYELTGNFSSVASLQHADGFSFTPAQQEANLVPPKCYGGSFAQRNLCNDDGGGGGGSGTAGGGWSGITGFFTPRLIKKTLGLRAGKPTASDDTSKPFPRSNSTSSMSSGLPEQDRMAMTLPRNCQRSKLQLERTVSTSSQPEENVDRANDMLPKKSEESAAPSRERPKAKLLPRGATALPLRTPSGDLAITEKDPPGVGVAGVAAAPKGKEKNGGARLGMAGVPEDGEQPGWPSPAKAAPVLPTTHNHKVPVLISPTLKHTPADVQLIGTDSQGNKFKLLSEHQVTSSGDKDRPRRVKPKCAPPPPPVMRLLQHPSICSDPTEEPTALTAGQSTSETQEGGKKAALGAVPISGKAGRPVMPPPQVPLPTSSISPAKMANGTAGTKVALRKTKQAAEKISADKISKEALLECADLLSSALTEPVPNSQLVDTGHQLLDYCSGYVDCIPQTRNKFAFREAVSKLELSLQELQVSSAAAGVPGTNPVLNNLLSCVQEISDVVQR
Sequence of UniProt P28335 (whole entry, looked up): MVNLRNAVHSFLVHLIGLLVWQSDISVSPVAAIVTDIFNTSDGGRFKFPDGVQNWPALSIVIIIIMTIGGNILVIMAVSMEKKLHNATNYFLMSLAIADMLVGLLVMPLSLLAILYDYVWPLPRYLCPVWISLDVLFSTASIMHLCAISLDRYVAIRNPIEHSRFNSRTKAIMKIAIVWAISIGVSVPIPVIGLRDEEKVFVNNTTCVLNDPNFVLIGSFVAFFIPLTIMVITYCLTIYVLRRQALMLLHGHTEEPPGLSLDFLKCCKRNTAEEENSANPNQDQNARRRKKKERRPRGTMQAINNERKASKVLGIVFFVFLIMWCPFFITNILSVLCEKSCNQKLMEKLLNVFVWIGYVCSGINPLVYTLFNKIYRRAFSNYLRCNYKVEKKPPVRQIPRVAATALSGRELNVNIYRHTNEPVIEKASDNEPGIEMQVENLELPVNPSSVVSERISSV

Block 1 — sample: plasma
SMILES: O=C1CCC(N2Cc3c(ccc4c3OCC43CCN(Cc4ccccc4)CC3)C2=O)C(=O)N1 (stereo not drawn)
Sprague Dawley rat, male; oral, 3 mg/kg, 0.083 h — plasma concentration: 0.00183 µg/mL and 0.00303 µg/mL and 0.00535 µg/mL.
The plasma concentration was 0.118 µg/mL and 0.113 µg/mL (male ICR mice; intravenous, 1 mg/kg, 1 h).
The plasma concentration was 0.0295 µg/mL and 0.0169 µg/mL (ICR mouse, male; intravenous, 1 mg/kg, 4 h).
For Sprague Dawley rat, male; oral, 3 mg/kg, 8 h: plasma concentration read 0.0332 µg/mL and 0.0284 µg/mL.
It gave 0.0191 µg/mL for plasma concentration (male ICR mice; intravenous, 1 mg/kg, 4 h).
It gave 0.235 µg/mL for plasma concentration (male ICR mice; oral, 3 mg/kg, 0.25 h).
It gave 0.314 µg/mL and 0.263 µg/mL for plasma concentration (ICR mouse, male; intravenous, 1 mg/kg, 0.083 h).
male ICR mice; intravenous, 1 mg/kg, 0.083 h — plasma concentration: 0.32 µg/mL.
The plasma concentration was “not detected” (rat; oral, 3 mg/kg, 24 h).
For ICR mouse, male; oral, 3 mg/kg, 2 h: plasma concentration read 0.28 µg/mL and 0.231 µg/mL.
It gave 0.129 µg/mL for plasma concentration (male Sprague Dawley rats; oral, 3 mg/kg, 1 h).
Sprague Dawley rat, male; intravenous, 1 mg/kg, 1 h — plasma concentration: 0.173 µg/mL.
The plasma concentration was 0.303 µg/mL and 0.131 µg/mL and 0.113 µg/mL (Sprague Dawley rat, male; oral, 3 mg/kg, 2 h).
male ICR mice; oral, 3 mg/kg, 0.5 h — plasma concentration: 0.355 µg/mL.
For ICR mouse, male; oral, 3 mg/kg, 8 h: plasma concentration read 0.0483 µg/mL and 0.0108 µg/mL and 0.0154 µg/mL.

Block 2 — cell line: HEK-293T; read-out: pseudovirus infection; method: FDA-approved drug library counter-screen; organism: VSV pseudotyped with VSV-G; concentration: 10 µM; time: 16 h; reference: vehicle-treated
CS(=O)(=O)OCCCCOS(C)(=O)=O has a GFP-positive cells of 79.7%.
C#C[C@]1(O)CC[C@H]2[C@@H]3CCC4=Cc5oncc5C[C@]4(C)[C@H]3CC[C@@]21C has a GFP-positive cells of 146%.
C[C@H]1COc2c(N3CCN(C)CC3)c(F)cc3c(=O)c(C(=O)O)cn1c23 has a GFP-positive cells of 100%.
For COc1ccc2nc(SCc3ncc(C)c(OC)c3C)[nH]c2c1, the GFP-positive cells was 127%.
CC(C)(C#N)c1cc(Cn2cncn2)cc(C(C)(C)C#N)c1 has a GFP-positive cells of 109%.
For CC(C)(C)NC(=O)[C@H]1CC[C@H]2[C@@H]3CC[C@H]4NC(=O)C=C[C@]4(C)[C@H]3CC[C@]12C, the GFP-positive cells was 81.5%.
CC(O)(P(=O)(O)O)P(=O)(O)O has a GFP-positive cells of 118%.
With Cc1[nH]cnc1CN1CCc2c(c3ccccc3n2C)C1=O the GFP-positive cells was 96%.
For CCC(=O)O[C@H]1CC[C@H]2[C@@H]3CCC4=CC(=O)CC[C@]4(C)[C@H]3CC[C@]12C, the GFP-positive cells was 115%.

Mixed results
CDPK1: Calcium-dependent protein kinase 1 (CDPK1, Plasmodium falciparum, UniProt P62344)
Sequence of UniProt P62344 (whole entry, looked up): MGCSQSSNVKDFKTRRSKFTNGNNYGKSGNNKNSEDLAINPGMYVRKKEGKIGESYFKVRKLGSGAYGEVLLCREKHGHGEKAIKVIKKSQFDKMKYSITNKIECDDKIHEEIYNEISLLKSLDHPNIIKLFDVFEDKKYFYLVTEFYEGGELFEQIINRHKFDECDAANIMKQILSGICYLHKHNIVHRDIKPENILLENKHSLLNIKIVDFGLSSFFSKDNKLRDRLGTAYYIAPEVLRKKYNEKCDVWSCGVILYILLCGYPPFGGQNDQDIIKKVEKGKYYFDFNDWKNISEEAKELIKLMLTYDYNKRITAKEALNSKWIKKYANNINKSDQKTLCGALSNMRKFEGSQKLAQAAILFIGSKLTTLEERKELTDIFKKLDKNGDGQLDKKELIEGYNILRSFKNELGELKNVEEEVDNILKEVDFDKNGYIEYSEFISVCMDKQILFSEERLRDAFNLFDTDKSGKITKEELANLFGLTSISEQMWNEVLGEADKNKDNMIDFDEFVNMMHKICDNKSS
For O=C(NCc1ncc(C(F)(F)F)cc1Cl)c1ccc2c(c1)C1(CCS(=O)(=O)CC1)[C@H](C1CC1)N2S(=O)(=O)c1ccc(F)cc1, the remaining binding was 96% (Serine/threonine-protein kinase tousled-like 1 (TLK1, Homo sapiens, UniProt Q9UKI8); cell-free assay, competition with immobilised ligand; 1 µM).
C[N+]1(C)CCc2cc3c(cc2[C@H]1[C@@H]1OC(=O)c2c1ccc1c2OCO1)OCO3 gave a remaining activity of 113% (DNA polymerase theta, ATPase domain (POLQ, Homo sapiens, UniProt O75417); ssDNA-stimulated ATPase activity, inhibitor, ADP-Glo luminescence; 77 µM; reference: DMSO).
For CC1=C(C#N)C(c2ccc3c(c2)c(NC(=O)c2ccccc2C)nn3C)C(C#N)=C(C)N1, the remaining binding was 98% (CDPK1; cell-free assay, competition with immobilised ligand; 1 µM).
The remaining activity of CN[C@@H]1C[C@H]2O[C@@](C)([C@@H]1OC)n1c3ccccc3c3c4c(c5c6ccccc6n2c5c31)C(=O)NC4 is reported as 5.25% (Tyrosine-protein kinase ABL2 (ABL2, Homo sapiens, UniProt P42684); enzyme activity, inhibitor; 0.5 µM).
The inhibition of Cc1cc(-n2nc(Cc3cc(F)cc(C(F)(F)F)c3)nc2C)ccc1C(N)=O is reported as -5.34% (5-hydroxytryptamine receptor 2C (HTR2C, Homo sapiens, UniProt P28335); binding, radioligand binding; 10 µM).
With CS(=O)(=O)NCC[C@H](NC(=O)c1cncc2c1cnn2-c1ccc(F)cc1)c1ccnc(S(C)(=O)=O)c1 the remaining binding was 99% (CDPK1; cell-free assay, competition with immobilised ligand; 1 µM).

Repeated from above (block 1):
The plasma concentration was 0.0295 µg/mL and 0.0169 µg/mL (ICR mouse, male; intravenous, 1 mg/kg, 4 h).
It gave 0.129 µg/mL for plasma concentration (male Sprague Dawley rats; oral, 3 mg/kg, 1 h).
It gave 0.314 µg/mL and 0.263 µg/mL for plasma concentration (ICR mouse, male; intravenous, 1 mg/kg, 0.083 h).
